Assay results from different studies.
Protocols differ between the studies behind these lines. Several values in a cell are separate wells, animals, samples, runs or records. Numbers after ± are the reported error.

| SMILES | assay | test system | conditions | how to read | measurement | value |
| --- | --- | --- | --- | --- | --- | --- |
| [2H]C([2H])([18F])Oc1cc(C(=O)OCC2CCN(CCCC)CC2)ccc1N | – | n-octanol/phosphate buffer | pH 7.4, room temperature, 0.15 M sodium phosphate | – | logD7.4 | 1.54 ± 0.02 |
| COc1ccc2c(c1)CN(C(=O)CCN1CCC(Cc3ccccc3)CC1)CC[S+]2[O-] (stereo not shown) | – | dog plasma | 75 ng/mL | – | fu | 0.322 |
| Cc1nc(N)nc2c1C(=O)N[C@@H](c1ccc(F)cc1-c1cccc(O[11CH3])n1)C2 | ex vivo biodistribution | mice, MDA-MB-231 subcutaneous xenograft, pancreas | 60 min post-injection, baseline, vehicle pre-treatment | – | SUV | 2.8 ± 0.1 |
| CC(=O)N([O-])CCCCCNC(=O)CCC(=O)N([O-])CCCCCNC(=O)CCC(=O)N([O-])CCCCCN.[89Zr+4] | – | mouse, kidney | 24 h | – | tracer uptake | 3.03 %ID/g |
| C=CC(=O)N1CCCC(n2c(=O)c3ncccc3n(Cc3ccc(Oc4ccccc4)cc3)c2=O)C1 (stereo not shown) | – | male BALB/c mice, plasma | oral, 200 mg/kg, 2 h | – | plasma concentration | 9020 ng/mL and 8160 ng/mL |
| O=C([O-])CN1CCN(CC(=O)[O-])CCN(C(CO)C(O)CO)CCN(CC(=O)[O-])CC1.[Dy+3] (stereo not shown) | – | female cynomolgus monkey, plasma | intravenous, dose not given, up to 48 h | – | terminal half-life | 25.5 h |
| CCn1nc(Cl)c2c1-c1cnc(N)c(c1)O[C@H](C)c1cc(F)ccc1-c1nn(C)cc1C2 | – | Balb/c nude mouse female, plasma | 0.06 mg/kg single dose, 12 h | – | free plasma concentration | 0.1 nM |
| Cc1cc(-c2ccc(C(=O)[C@@H]3CCCC[C@H]3C(=O)Nc3cnn4c3C(=O)NCC4)cc2)[nH]n1 | – | human, faeces | oral, 200 mg, 240-264 h, discharged subjects excluded | baseline: dose | recovery of radioactivity per interval | 0.18% |
| CC(C)[C@H](NC(=O)[C@H](Cc1c[nH]c2ccccc12)NC(=O)[C@H](CCCNC(=N)N)NC(=O)[C@H](CCCNC(=N)N)NC(=O)[C@@H](NC(=O)[C@@H](NC(=O)[C@H](CCCNC(=N)N)NC(=O)[C@@H](NC(=O)[C@@H](NC(=O)[C@H](CCCNC(=N)N)NC(=O)[C@H](CCCNC(=N)N)NC(=O)[C@@H](NC(=O)[C@H](Cc1c[nH]c2ccccc12)NC(=O)[C@H](CCCNC(=N)N)NC(=O)[C@H](CCCNC(=N)N)NC(=O)[C@@H](NC(=O)[C@H](CCCNC(=N)N)NC(=O)[C@H](CCCNC(=N)N)NC(=O)[C@@H](NC(=O)[C@H](Cc1c[nH]c2ccccc12)NC(=O)[C@H](CCCNC(=N)N)NC(=O)[C@@H](N)CCCNC(=N)N)C(C)C)C(C)C)C(C)C)C(C)C)C(C)C)C(C)C)C(C)C)C(=O)N[C@@H](CCCNC(=N)N)C(=O)N[C@@H](CCCNC(=N)N)C(=O)O | – | CD1 mouse, plasma | intravenous, 15 mg/kg, 16 h, [14C]-labelled compound | – | blood urea nitrogen | 15.3 mg/dL |
| CCc1cnc(NC(=O)c2cc(S(=O)(=O)N3CCOCC3)ccc2N(C)C2CCCC2)s1 | – | mouse | 10 mg/kg, 3 doses | – | total protein | 5.5 g/dL |
| COc1cccc(OC)c1-c1cc(C(=O)NC2(C(=O)O)C3CC4CC(C3)CC2C4)nn1-c1ccc(C(=O)N(C)CCOCCOCCN(C)C(=O)[C@H](CCCCNC(=O)[C@H](CC(C)C)NC(=O)C2OC2C(=O)O)NC(=O)CN2CCN(CC(=O)[O-])CCN(CC(=O)[O-])CCN(CC(=O)[O-])CC2)cc1C(C)C.[177Lu+3] (mixture of isomers) | – | mouse, HT-29 xenograft, HT-29 tumour | 24 h post injection | – | tissue uptake | 2.19 %ID/g |
| Oc1ccccc1/C=N/Nc1nnc(N/N=C/c2ccccc2O)c2ccccc12 | haemolysis | human | 10 mM, 45 min | – | haemolysis | 12.9% |
| Cc1ccc(OCC(=O)N(Cc2cccs2)c2ccn[nH]2)cc1 | – | human plasma | 750 ng/mL, 2 h, 37 °C, unit not given | baseline: time zero | remaining compound | 79.7 |
| C=CC(=O)Nc1cc(Nc2nccc(-c3cn(C)c4ccccc34)n2)c(OC)cc1N(C)CCNC | storage stability | human plasma | 10 d, on ice, MQC level | – | recovery | 64.4% |
| CCCCN1C(=O)c2cccc3c(NCCCCCCCCCCN4CCOCC4)ccc(c23)C1=O | – | DMSO | – | – | molar extinction coefficient | 13600 M⁻¹ cm⁻¹ |
| C/C(N)=N/C(=N\S(=O)(=O)c1ccc(C(F)(F)F)cc1)N1C[C@H](c2ccccc2)C(c2ccc(Cl)cc2)=N1 | – | male C57BL/6 mouse, muscle | intravenous, 10 mg/kg | – | Tmax | 2 h |
| CC[C@H](C)[C@@H](C(=O)N[C@@H](CC(C)C)C(=O)N[C@@H](CO)C(=O)N[C@@H](CO)C(=O)N[C@H](C(=O)N[C@@H](CCC(=O)O)C(=O)N[C@H](C(=O)NCC(=O)N[C@@H](CO)C(=O)N[C@@H](CC(N)=O)C(=O)N[C@H](C(=O)N1C[C@H](O)C[C@H]1C(N)=O)[C@@H](C)O)C(C)C)[C@@H](C)O)N(C)C(=O)[C@H](C)NC(=O)CN(C)C(=O)[C@H](Cc1ccccc1)NC(=O)[C@H](CO)NC(=O)[C@H](CO)NC(=O)[C@H](CCCNC(=N)N)NC(=O)[C@H](CCC(N)=O)NC(=O)[C@H](CC(C)C)NC(=O)[C@H](Cc1ccccc1)NC(=O)[C@H](CCCC(=O)O)NC(=O)[C@H](C)NC(=O)[C@H](CC(C)C)NC(=O)[C@H](CCCNC(=N)N)NC(=O)[C@H](CCC(=O)O)NC(=O)[C@@H](NC(=O)[C@H](C)NC(=O)[C@@H]1CCCCNC(=O)C[C@H](NC(=O)[C@H](CCCNC(=N)N)NC(=O)CC[C@H](NC(=O)CCCCCCCCCCCCCCCCCCC(=O)O)C(=O)O)C(=O)NCC(=O)N[C@@H]([C@@H](C)O)C(=O)N[C@@H](C)C(=O)N[C@@H]([C@@H](C)O)C(=O)N1)[C@@H](C)O | RP-UPLC | formulation, phosphate buffer, propylene glycol, mannitol, NaCl | 1 weeks, pH 6.1, 40 °C | – | chemical degradation | ≤ 3% |
| CC(C)C[C@H](NC(=O)[C@@H](CCCCNC(=O)[C@@H](Cc1ccccc1)NC(=O)CCCCCCCNC(=O)CN1CCN(CC(=O)O)CCN(CC(=O)O)CCN(CC(=O)O)CC1)NC(=O)[C@H](Cc1ccc(O)cc1)NC(=O)[C@H](CO)NC(=O)[C@H](Cc1c[nH]c2ccccc12)NC(=O)[C@H](Cc1c[nH]cn1)NC(=O)[C@@H]1CCC(=O)N1)C(=O)N[C@@H](CCCNC(=N)N)C(=O)N1CCC[C@H]1C(=O)NCC(N)=O [indium-111 labelled] | – | male athymic nude mice, DU-145 prostate cancer xenograft, kidney | intravenous, 0.037 MBq, 0.5 h | – | tissue uptake | 8.01 ± 0.57 %ID/g |
| CCCCN1C(=O)c2cccc3c(NCCCN4CCOCC4)ccc(c23)C1=O | – | CHCl3 | – | – | molar extinction coefficient | 6000 M⁻¹ cm⁻¹ |
| C=CC(=O)Nc1cc(Nc2nccc(-c3c[nH]c4ccccc34)n2)c(OC)cc1N(C)CCN(C)C | storage stability | human dried blood spot | 2 h, on ice, LLOQ level | – | recovery | 81.1% |

| SMILES | assay | test system | conditions | how to read | measurement | value |
| --- | --- | --- | --- | --- | --- | --- |
| [123I]c1ccc2nc(-c3ccc(-n4ccnn4)nc3)cn2c1 | – | male Wistar rat, stomach | intravenous, 4 MBq, 24 h | – | tracer uptake | 0.024 %ID/g |
| C=C[C@]1(C)C[C@@H](OC(=O)CSc2ccc(NC(=O)c3ccco3)cc2)[C@]2(C)[C@H](C)CC[C@]3(CCC(=O)[C@H]32)[C@@H](C)[C@@H]1O | – | M. gallisepticum-infected chickens, plasma | intramuscular, 5 mg/kg single dose | – | peripheral volume (V2/F) | 1.49 L/kg |
| Cc1[nH]nc2c1N=C(c1ccccc1Cl)c1cnc(N3CCOCC3)cc1N2 | metabolic stability | dog, liver microsomes | 1 µM, pH 7.4 | – | scaled CLint | 15.9 mL/min/kg |
| CCn1c(=O)c(-c2cc(NC(=O)Nc3ccccc3)c(F)cc2Br)cc2cnc(N)cc21 | – | human plasma | 150 ng/mL, -20 °C, 3 cycles, low QC | – | freeze-thaw stability accuracy | -10.5% |
| CCCCN1C(=O)c2cccc3c(NCCCCCN4CCOCC4)ccc(c23)C1=O | – | toluene | – | – | fluorescence lifetime | 8.4 ns |
| Cc1cc(C(=O)N[C@@H](CC(=O)NC(C)(C)C)C(=O)NCCNC(=O)c2cccc(-n3cccn3)c2)no1 | – | mouse, plasma | intravenous, 0.1 mg/kg | – | mean residence time | 0.39 h |
| CC[C@H](C)[C@@H]1NC(=O)[C@H](Cc2ccc(O)cc2)NC(=O)CCCSC[C@@H](C(=O)N(CC(=O)N[C@@H](CC(C)C)C(=O)NCC(N)=O)Cc2ccc(F)cc2)NC(=O)[C@H](CC(N)=O)NC(=O)[C@H](CCC(N)=O)NC1=O | – | healthy human, plasma | intranasal, 50 µg every 3 h, after first dose | – | AUC(0-t) | 0.018 ng·h/mL |
| COc1ccc2c(c1)O[B-]1(c3ccccc3)OC(=O)C(c3ccccc3)=N[N+]1=C2C (stereo not shown) | – | toluene | – | – | molar absorption coefficient | 22000 M⁻¹ cm⁻¹ |
| O=C(Nc1cnccc1-c1ccc([18F])cc1)c1ccnc(NC(=O)C2CC2)c1 | ex vivo gamma counting | FVB/NJ mice, both sexes, right kidney | intravenous, 120 min, added: tariquidar 15 mg/kg iv | – | mean SUV | 0.92 |
| O=C([O-])CN1CCN(CC(=O)[O-])CCN(CC(=O)NCC2CCC(C(=O)NC(Cc3ccc4ccccc4c3)C(=O)NCCCCC(NC(=O)NC(CCC(=O)O)C(=O)O)C(=O)O)CC2)CCN(CC(=O)[O-])CC1.[68Ga+3] (stereo not shown) | micro-PET/CT | mouse 22Rv1 xenograft, tumour | 1 h post-injection | – | mean tumour uptake | 5.4 ± 0.22 %ID/g |
| CN([O-])C(=O)CN1CCNCCN(CC(=O)N(C)[O-])CC1.[89Zr+4] | – | mouse, kidney | intravenous, 4 h | – | tracer uptake | 1.28 %ID/g |
| C=C(NC(=O)c1csc(-c2nc3c(cc2O)-c2nc(cs2)C(=O)NC(C(C)O)C(=O)NC(=C(C)OC)c2nc(cs2)C(=O)NC2c4nc(cs4)C(=O)NC(COC(=O)c4c5c6c(cccc6n4O)COC(=O)C(OC4CC(C)(O)C(N(C)C)C(C)O4)C2OC5)c2nc-3cs2)n1)C(N)=O (stereo not shown) | – | Sprague-Dawley rats, both sexes, faeces | intravenous, 6 mg/kg, 48 h | baseline: dose | faecal excretion unchanged | 0.58% |
| Cc1ncc2c(n1)CN(C(=O)Nc1nc(-c3cccs3)ccc1N)C2 | – | C57BL/6 mouse, plasma | oral gavage, 10 mg/kg | – | free Cmax | 759 ng/mL |
| O=C(Nc1cnccc1-c1ccc([18F])nc1)c1ccnc(NC(=O)C2CC2)c1 | – | mice, transgenic, GSK-3β, early-stage, skin | intravenous, dose not given, 120 min | – | SUV | 0.102 |
| CCCC[C@H](OC(C)=O)c1ccccc1C(=O)O | – | Sprague-Dawley rats, both sexes, whole blood | intravenous, 5 mg/kg single dose | – | MRT(0-inf) | 3.4 ± 1.5 h |
| O=C1NC2(CC2)COc2ncc(F)cc2[C@H]2COCCN2c2ccn3ncc1c3n2 | bone marrow micronucleus test | NIH mice, male | oral, 60 mg/kg/day, 3 days | – | PCE/(PCE+NCE) ratio | 0.396 ± 0.053 |
| CCCCN1C(=O)c2cccc3c(NCCN4CCOCC4)ccc(c23)C1=O | – | water | pH 6.0 | – | molar extinction coefficient | 16000 M⁻¹ cm⁻¹ |
| Cc1cc(C)n(CCN(CCN)CCCCCCNC(=O)[C@@H](N)Cc2c[nH]cn2)n1.[99Tc+].[C-]#[O+].[C-]#[O+].[C-]#[O+] | RP-HPLC | BALB/c nude mice, A549 xenograft, urine and blood | 4 h | – | intact radiocomplex | > 90% |
| COCC1CN(C2CCN(c3cc(OC)c(Nc4ncc(Br)c(Nc5ccc6c(c5P(C)(C)=O)OCCO6)n4)cc3C)CC2)C1 | – | EGFR-mutant NSCLC patients, plasma | oral, 240 mg single dose, median | – | Tmax | 3.98 h |
| CCCCN1C(=O)c2cccc3c(NCCCCCCCCN4CCOCC4)ccc(c23)C1=O | – | ethyl acetate | – | – | fluorescence quantum yield | 1.02 |

A few entries again:
| SMILES | assay | test system | conditions | how to read | measurement | value |
| --- | --- | --- | --- | --- | --- | --- |
| Cc1ncc2c(n1)CN(C(=O)Nc1nc(-c3cccs3)ccc1N)C2 | – | C57BL/6 mouse, plasma | oral gavage, 10 mg/kg | – | free Cmax | 759 ng/mL |
| C/C(N)=N/C(=N\S(=O)(=O)c1ccc(C(F)(F)F)cc1)N1C[C@H](c2ccccc2)C(c2ccc(Cl)cc2)=N1 | – | male C57BL/6 mouse, muscle | intravenous, 10 mg/kg | – | Tmax | 2 h |
